Measurements gathered from unrelated publications.
Lines come from different studies, so protocols differ. Numbers after ± are the reported error.

N=C(N)NCCC[C@H](NC(=O)CON=C[C@H](F)[C@@H](O)[C@H](O)[C@H](O)CO)C(=O)NCC(=O)N[C@@H](CC(=O)O)C(=O)O [fluorine-18 labelled] — tissue uptake (nude mice U-87 MG tumour, brain; intravenous, 0.5 h): 0.58 ± 0.04 %ID/g
CC(C)[C@H](NC(=O)[C@@H]1CCCN1C(=O)[C@H](CCCNC(=N)N)NC(=O)[C@H](CS)NC(=O)[C@H](Cc1c[nH]c2ccccc12)NC(=O)[C@H](CCCNC(=N)N)NC(=O)[C@@H](Cc1ccccc1)NC(=O)[C@H](Cc1c[nH]cn1)NC(=O)[C@H](CCC(=O)O)NC(=O)[C@H](CS)NC(=O)[C@H](CS)NC(=O)CNC(=O)[C@@H]1CC(=O)N[C@@H](CCCNC(=N)N)C(=O)NCC(=O)N[C@@H](CC(=O)O)C(=O)N[C@H](Cc2ccc(O)cc2)C(=O)N1)C(N)=O [technetium-99m labelled] — tissue uptake (female mice, B16/F1 melanoma, intestines; intravenous, dose not given, 2 h, together with: 10 µg NDP-MSH co-injected): 2.49 ± 1.1 %ID
O=C([O-])CN1CCN(CC(=O)[O-])CCN(CC(=O)NCCc2ccc3c(c2)C2C=CCC2C(c2cc4c(cc2Br)OCO4)N3)CCN(CC(=O)[O-])CC1.[111In+3] (centres unmarked) — tissue uptake (SPECT/CT imaging; mice with Hec50 tumour xenograft, liver; 4 h): 3.13 % ID
CCCC[C@H](NC(=O)CNC(=O)CNC(=O)CN1CCN(CC(=O)O)CCN(CC(=O)O)CC1)C(=O)N[C@H]1CC(=O)NCCCC[C@@H](C(N)=O)NC(=O)[C@H](Cc2c[nH]c3ccccc23)NC(=O)[C@H](CCCNC(=N)N)NC(=O)[C@@H](Cc2ccccc2)NC(=O)[C@H](Cc2c[nH]cn2)NC1=O [gallium-67 labelled] — tissue uptake (C57 mice, female, B16/F1 melanoma, intestines; intravenous, 0.037 MBq, 24 h): 1.23 ± 0.35 %ID
O=C(NCC1OC2CCC=CCCC2O1)c1ccc([18F])nc1 (centres unmarked) — tissue uptake (ex vivo biodistribution; BALB/c nude mice, female, LS174T xenograft, tumour; intravenous, 7.4 MBq, 60 min, together with: unmodified CC49 antibody 24 h before): 0.78 ± 0.24 %ID/g
CN1C(=O)[C@@H](Cc2ccc(O)c(I)c2)NC(=O)CNC(=O)[C@H](Cc2ccc3ccccc3c2)NC(=O)[C@H](CCCNC(=N)N)NC(=O)[C@H]1CCCNC(=O)c1ccc(CNC(=O)CN2CCN(CC(=O)O)CCN(CC(=O)O)CCN(CC(=O)O)CC2)cc1 [lutetium-177 labelled] — tissue uptake (item: 177Lu radioactivity; female CB-17 SCID mice, Daudi xenograft, small intestine; intravenous, 0.16 nmol per mouse, 1 h): 0.9 ± 0.2 %ID/g
CC(C)[C@H](NC(=O)[C@@H]1CCCN1C(=O)[C@H](CCCNC(=N)N)NC(=O)[C@H](CS)NC(=O)[C@H](Cc1c[nH]c2ccccc12)NC(=O)[C@H](CCCNC(=N)N)NC(=O)[C@@H](Cc1ccccc1)NC(=O)[C@H](Cc1c[nH]cn1)NC(=O)[C@H](CCC(=O)O)NC(=O)[C@H](CS)NC(=O)[C@H](CS)NC(=O)[C@@H]1CC(=O)N[C@@H](CCCNC(=N)N)C(=O)NCC(=O)N[C@@H](CC(=O)O)C(=O)N[C@H](Cc2ccc(O)cc2)C(=O)N1)C(N)=O [technetium-99m labelled] — tissue uptake (C57 mice B16/F1 melanoma female, kidneys; iv, 0.037 MBq, 24 h): 2.8 ± 0.84 %ID/g
CCCC[C@@H]1NC(=O)[C@@H](NC(=O)[C@H](CCC(=O)O)NC(=O)CNC(=O)CN2CCN(CC(=O)O)CCN(CC(=O)O)CCN(CC(=O)O)CC2)CCCCNC(=O)C[C@@H](C(N)=O)NC(=O)[C@H](C(C)C)NC(=O)[C@@H]2CCCN2C(=O)[C@H](CCCNC(=N)N)NC(=O)CNC(=O)[C@H](Cc2c[nH]c3ccccc23)NC(=O)[C@H](CCCNC(=N)N)NC(=O)[C@@H](Cc2ccccc2)NC(=O)[C@H](Cc2c[nH]cn2)NC(=O)[C@H](CCC(=O)O)NC1=O [gallium-67 labelled] — tissue uptake (normal C57 mice, liver; intravenous, 0.037 MBq, 4 h): 0.55 ± 0.14 %ID/g
O=C([O-])CN1CCN(CC(=O)[O-])CCN(CC(=O)[O-])CCN(CC(=O)[O-])CC1.[64Cu+2] — tissue uptake (healthy athymic nude mice, kidney; intravenous, 15 min): 6.81 %ID/g
CCCC[C@H](NC(=O)CN1CCC(NC(=O)CN2CCN(CC(=O)O)CCN(CC(=O)O)CCN(CC(=O)O)CC2)CC1)C(=O)N[C@H]1CC(=O)NCCCC[C@@H](C(N)=O)NC(=O)[C@H](Cc2c[nH]c3ccccc23)NC(=O)[C@H](CCCNC(=N)N)NC(=O)[C@@H](Cc2ccccc2)NC(=O)[C@H](Cc2c[nH]cn2)NC1=O [gallium-68 labelled] — tissue uptake (C57BL/6J mice male B16-F10 tumour, muscle; 2 h post injection, unblocked): 0.1 %ID/g
CCCC[C@H](NC(=O)CNC(=O)CNC(=O)CN1CCN(CC(=O)O)CCN(CC(=O)O)CCN(CC(=O)O)CC1)C(=O)N[C@H]1CC(=O)NCCCC[C@@H](C(N)=O)NC(=O)[C@H](Cc2c[nH]c3ccccc23)NC(=O)[C@H](CCCNC(=N)N)NC(=O)[C@@H](Cc2ccccc2)NC(=O)[C@H](Cc2c[nH]cn2)NC1=O [gallium-67 labelled] — tissue uptake (female C57 mice, B16/F1 melanoma, kidneys; intravenous, 0.037 MBq, 4 h): 8.44 ± 0.11 %ID/g
O=C([O-])c1cccc(CN(CCN(Cc2cn(Cc3ccccc3)nn2)Cc2cccc(C(=O)[O-])n2)Cc2cn(Cc3ccccc3)nn2)n1.[64Cu+2] — tissue uptake (healthy athymic nude mice, heart; intravenous, 4 h): 3.81 %ID/g
NC12CNCCNCC(NCc3ccc(CNC(=O)CCCC(=O)NCc4ccc(-c5nncnn5)cc4)cc3)(CNCCNC1)CNCCNC2.[64Cu+2] — tissue uptake (athymic nude mice, SW1222 xenograft, lung; 24 h post-injection, 24 h pretargeting interval, together with: huA33-TCO pretargeting): 0.99 ± 0.24 %ID/g
N=C(N)NCCC[C@@H]1NC(=O)[C@H](CCCCNC(=O)CON=C[C@H](F)[C@@H](O)[C@H](O)[C@H](O)CO)NC(=O)[C@@H](Cc2ccc(O)cc2)NC(=O)[C@H](CC(=O)O)NC(=O)CNC1=O [fluorine-18 labelled] — tissue uptake (nude mice U-87 MG tumour, brain; intravenous, 0.5 h): 0.8 ± 1.09 %ID/g
